{"data": "Results collected from several papers", "note": "Each line is one published result; not all experiments were run side by side. Values joined by “and” are separate records of one study, mostly repeats; a detail may differ. ± marks the error that the study gave."}
{"SMILES": "N#Cc1c(Cl)c(Cl)c(Cl)c(Cl)c1C#N", "tested on": "MERS-CoV spike VSV pseudovirus", "assay": "pseudovirus entry", "setting": "10 µM", "endpoint": "inhibition", "result": "57%"}
{"SMILES": "O=c1ccn([C@@H]2O[C@](F)(CO)[C@@H](O)[C@H]2O)c(=O)[nH]1", "tested on": "Mammarenavirus lassaense", "assay": "viral replication", "test system": "HeLa, clade III Nigeria-231", "endpoint": "EC50", "result": "8.43 µM"}
{"SMILES": "CC(C)[C@H]1C(=O)O[C@H](C(C)C)C(=O)N(C)[C@@H](C(C)C)C(=O)O[C@H](C(C)C)C(=O)N(C)[C@@H](C(C)C)C(=O)O[C@H](C(C)C)C(=O)N1C", "assay": "LC-MS/MS", "test system": "CB-17 scid/scid mice, kidney", "setting": "intraperitoneal, 5 mg/kg, 24 h after last dose, daily dosing", "endpoint": "tissue concentration", "result": "0.1 µg/kg"}
{"SMILES": "NC(=O)c1nc(F)c[nH]c1=O", "tested on": "Lassa virus", "test system": "HeLa, clade IV Josiah", "endpoint": "EC50", "result": "47.8 ± 13.6 µM"}
{"SMILES": "COc1ncc(-c2cn([C@@H]3O[C@](F)(CO)[C@@H](O)[C@H]3O)cn2)c(N)n1", "tested on": "Zaire ebolavirus", "assay": "viral replication, reporter virus", "test system": "Huh-7", "setting": "72 h", "endpoint": "IC50", "result": "39 µM"}
{"SMILES": "NC(=O)c1ncn([C@@H]2O[C@H](CO)[C@@H](O)[C@H]2O)n1", "tested on": "Lassa virus", "test system": "HeLa, clade II Nigeria-322", "endpoint": "EC50", "result": "2.31 ± 0.33 µM"}
{"SMILES": "COc1ncc(-c2cn([C@@H]3O[C@](F)(CO)[C@@H](O)[C@H]3O)cn2)cn1", "tested on": "Zaire ebolavirus", "assay": "viral replication, reporter virus", "test system": "Huh-7", "setting": "72 h", "endpoint": "IC50", "result": "44.1 µM"}
{"SMILES": "COc1cc2ncnc(Nc3cccc(Cl)c3)c2cc1OC", "tested on": "Monkeypox virus", "assay": "viral replication", "test system": "replication-deficient", "setting": "2 µM", "endpoint": "inhibition", "result": "81.2% and 89.1% and 87%"}
{"note": "For quick reference, copied from above:"}
{"SMILES": "COc1cc2ncnc(Nc3cccc(Cl)c3)c2cc1OC", "tested on": "Monkeypox virus", "assay": "viral replication", "test system": "replication-deficient", "setting": "2 µM", "endpoint": "inhibition", "result": "81.2% and 89.1% and 87%"}
